Experimental data of several laboratories.
Each line is one published result; not all experiments were run side by side. “And” joins repeats or separate records; there may be more than shown. Numbers after ± are the reported error.
Sequence of UniProt Q64663 (whole entry, unmodified, looked up): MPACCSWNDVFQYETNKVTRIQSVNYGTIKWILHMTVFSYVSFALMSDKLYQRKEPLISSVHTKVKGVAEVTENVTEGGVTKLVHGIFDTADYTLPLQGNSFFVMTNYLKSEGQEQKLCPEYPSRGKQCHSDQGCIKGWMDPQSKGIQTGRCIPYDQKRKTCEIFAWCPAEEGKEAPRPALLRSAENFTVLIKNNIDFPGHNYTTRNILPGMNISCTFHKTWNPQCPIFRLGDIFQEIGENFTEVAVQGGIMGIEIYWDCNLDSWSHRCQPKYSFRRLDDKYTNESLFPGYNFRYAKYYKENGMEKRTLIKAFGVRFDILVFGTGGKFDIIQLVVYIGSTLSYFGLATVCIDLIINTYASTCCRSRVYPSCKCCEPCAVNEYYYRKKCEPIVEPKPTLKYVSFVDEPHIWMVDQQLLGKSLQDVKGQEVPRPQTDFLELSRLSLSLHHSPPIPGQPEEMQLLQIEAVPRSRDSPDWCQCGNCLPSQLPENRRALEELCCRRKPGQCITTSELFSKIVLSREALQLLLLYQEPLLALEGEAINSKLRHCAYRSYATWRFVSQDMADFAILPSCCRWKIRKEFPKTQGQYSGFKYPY

With `BzATP` the normalized current was 0.874 and 0.988 and 0.95 (P2X purinoceptor 7 (P2rx7, Rattus norvegicus, UniProt Q64663, I214A); ion current, agonist, two-electrode voltage clamp; Xenopus oocytes; 33 µM).
With `bcp C50S (Escherichia coli)` the pKa was 6.05 (UV-vis, refers to: Cys45; reduced, folded, numbering of the source).
Under recovery, `oxyntomodulin` is recorded as “decreased” (LC-MS/MS; human serum; relative to: human plasma).
The pKa of `azu C112D/M121H (Pseudomonas aeruginosa)` is reported as 8 (UV-vis, refers to: His121; inferred, Cu(II) form presumed, numbering of the source).
`FNA / CGLSGLGVA-NH2 ([18F]FNA-labelled, C-amide)` has a tissue uptake of 0.19 %ID/g (ex vivo gamma counting; peptide, healthy mouse, muscle; 60 min post injection).
`ACEQNPIYWARYADWLFTTPLLLLDLALLVDADEGT`: “mean fluorescence intensity” 545 ± 85.9 a.u. (ex vivo fluorescence imaging; peptide, BALB/c mice, 4T1 tumour-bearing, kidney; intravenous, 5 nmol, 24 h post-injection; higher = more uptake).
For `insulin aspart`, the AUC(2 h-t) was 0.262 nM·h (ELISA after PEG precipitation, refers to: free insulin aspart; human, type 1 diabetes, serum; subcutaneous, dose not given, least squares mean).
For `ACEEQNPWARYLEWLFPTETLLLEL`, “mean fluorescence intensity” read 757 ± 34.9 a.u. (ex vivo fluorescence imaging; peptide, BALB/c mice, 4T1 tumour-bearing, muscle; intravenous, 5 nmol, 4 h post-injection; higher = more uptake).
`pegcetacoplan`: “number of TEAEs” 263 (refers to: general and administration site disorders; patients with PNH; dose not given, phase Ib trial).
With `adrenomedullin` the retention time was 13 min (RP-HPLC; HALO C18 column; 25 µM, acetic acid/methanol, 25 min gradient).
For `insulin degludec`, the AUC0−∞ was 0.623 ± 0.065 µg·h/mL (human; subcutaneous, 0.4 IU/kg, 2 FC level, single dose, reference formulation).
For `VMRLQSETSV`, “normalised SPR binding response” read 0 normalised RU (human MAGI1-2/6 PDZ construct (MBP fusion); surface plasmon resonance; peptide; concentration not given; higher = stronger binding).
`Ubiquitin fragment (Homo sapiens)` has a pKa of 10.5 (NMR, refers to: Lys48).
`insulin aspart`: “time to early 50% Cmax” 26.6 min (ELISA; human, adults with type 1 diabetes, up to 35 years, serum; subcutaneous, 0.2 U/kg).
For `PKRSFIESNV`, “normalised SPR binding response” read 214 normalised RU (human SCRIB PDZ3-4 tandem (MBP fusion); surface plasmon resonance; peptide; concentration not given; higher = stronger binding).
`insulin icodec` — result for “participants with adverse events”: 50% (human moderate renal impairment; concentration not given).
`insulin aspart` gave an AUC(0-t) of 0.646 nM·h (Japanese type 1 diabetes patients, serum free; subcutaneous, 0.2 U/kg single, up to 12 h, least squares mean).
`insulin glargine` — result for “last measurable concentration”: 37 pmol/L (LC-MS/MS; type 2 diabetic subjects, plasma; dose not given, 13 h, two other subjects).
For `glucagon`, “Congo red signal” read 1.71 µM (Congo red binding; 10 mM PBS; 172.2 µM, 64 h, pH 2.5).
`Neuropeptide Y` has a retention time of 17.9 min (RP-HPLC; HALO C18 column; 25 µM, formic acid/methanol, 25 min gradient).
For `human insulin`, the AUC was 1.38 ± 0.3 nM·h (ELISA; pig, anaesthetized, serum; jejunal wall, 20 IU, -20 to +420 min, robotic ingestible pill).
`Peginesatide` has a phosphorylation level of 14.4 fold (UT7/EPO; tyrosine phosphorylation, LC-MS/MS phosphoproteomics, trypsin, refers to: JAK2 tyrosine 1007; 10 nM, 15 min, with: 10 U/mL EPO; relative to: vehicle).
`ACDDQNPWRAYLDLLFPTDTLLLDLLW` — result for “mean fluorescence intensity”: 1670 ± 410 a.u. (ex vivo fluorescence imaging; peptide, BALB/c mice, 4T1 tumour-bearing, liver; intravenous, 5 nmol, 2 h post-injection; higher = more uptake).
The MIC of `colistin` is reported as 1 mg/L (Pseudomonas aeruginosa; broth microdilution; clinical isolate RKI-No_216/16).

A few entries again:
`insulin icodec` — result for “participants with adverse events”: 50% (human moderate renal impairment; concentration not given).
`insulin aspart` gave an AUC(0-t) of 0.646 nM·h (Japanese type 1 diabetes patients, serum free; subcutaneous, 0.2 U/kg single, up to 12 h, least squares mean).
